Results pooled from the literature.
Each line is one published result; not all experiments were run side by side. Several values in a cell are separate wells, animals, samples, runs or records. Numbers after ± are the reported error.

Compound	test	system	setting	scale	measurement	value
C[C@]12COc3ccc(OCc4ccccc4)cc3[C@H]1CCN2	lipid PAMPA	artificial lipid membrane	10 µM, 16 h		recovery	3.5%
C=CC(=O)Nc1cccc(Cn2ncc3cnc(Nc4cnn(CCOC)c4)nc32)c1		Sprague-Dawley rat female, blood	oral, 180 mg/kg, day 28, 28-day subacute toxicity		haemoglobin	132 ± 6.65 g/L
CC[C@H](C)[C@H](NC(=O)[C@H](CCCCN)NC(=O)CNC(=O)[C@H](CC(C)C)NC(=O)[C@H](Cc1ccccc1)NC(=O)[C@H](CCCCN)NC(=O)[C@H](CO)NC(=O)[C@H](Cc1ccccc1)NC(=O)[C@H](Cc1c[nH]c2ccccc12)NC(=O)[C@H](CCC(N)=O)NC(=O)[C@@H](NC(=O)[C@H](Cc1ccccc1)NC(=O)CCCCCNC(=O)CN1CCN(CC(=O)O)CCN(CC(=O)O)CCN(CC(=O)O)CC1)C(C)C)C(=O)N[C@@H](CCC(=O)O)C(=O)N1CCC[C@H]1C(=O)N[C@@H](CC(=O)O)C(=O)N[C@H](C(=O)N[C@@H](CO)C(=O)N[C@@H](CCC(N)=O)C(=O)N[C@H](C(=O)N[C@@H](CCC(N)=O)C(=O)N[C@@H](CC(=O)O)C(=O)N1CCC[C@H]1C(=O)N[C@@H](CC(N)=O)C(=O)N[C@@H](CC(=O)O)C(=O)N[C@@H](CCC(N)=O)C(=O)N[C@@H](Cc1ccc(O)cc1)C(=O)N[C@@H](CCC(=O)O)C(=O)N1CCC[C@H]1C(=O)N[C@@H](Cc1ccccc1)C(=O)O)C(C)C)C(C)C [copper-64 labelled]	dynamic PET	mouse both sexes, CT26 tumour, checkpoint inhibitor-treated, tumour	intravenous, 100 µCi/mouse, 570 s		SUVmean	3.7 SUV
O=C1NC2(CC2)COc2ncc(F)cc2[C@H]2COCCN2c2ccn3ncc1c3n2		Sprague-Dawley rat, male, serum	oral, 2.5 mg/kg/day, end of treatment, 4-week subacute toxicity		serum total protein	56.2 ± 2.1 g/L
C#Cc1c(F)ccc2cc(O)cc(-c3ncc4c(N5CC6CCC(C5)N6C(=O)OC(C)OC(=O)CC(C)(C)C)nc(OC[C@@]56CCCN5C[C@H](F)C6)nc4c3F)c12 (stereo partly shown)	chemical stability	simulated intestinal fluid	1 µM, 30 min		compound remaining	104%
CCCC[C@H]1C(=O)N(C)[C@@H](CCCC)C(=O)N[C@@H](CCCNC(=O)CN2CCN(CC(=O)O)CCN(CC(=O)O)CCN(CC(=O)O)CC2)C(=O)N[C@H](C(=O)NCC(N)=O)CSCC(=O)N[C@@H](Cc2ccc(O)cc2)C(=O)N(C)[C@@H](C)C(=O)N[C@@H](CC(N)=O)C(=O)N2CCC[C@H]2C(=O)N[C@@H](Cc2c[nH]cn2)C(=O)N[C@@H](CC(C)C)C(=O)N(C)CC(=O)N[C@@H](Cc2c[nH]c3ccccc23)C(=O)N[C@@H](CO)C(=O)N[C@@H](Cc2c[nH]c3ccccc23)C(=O)N1C [gallium-68 labelled]		NOD/SCID mice with CHO-hPD-L1 xenograft, pancreas	30 min post injection		tissue uptake	1.48 ± 0.08 %ID/g
CC(=O)NCCCC[C@@H]1NC(=O)[C@H](Cc2c[nH]c3c(C)cccc23)NC(=O)[C@H]([C@@H](C)O)NC(=O)[C@H](CC(N)=O)NC(=O)[C@@H](NC(C)=O)C(C)(C)SSC(C)(C)[C@@H](C(=O)N[C@@H](Cc2ccc(OCCN)cc2)C(=O)N[C@@H](Cc2ccc3ccccc3c2)C(=O)NC2(C(=O)N[C@@H](CCC(=O)O)C(=O)N[C@@H](CC(N)=O)C(=O)N[C@@H](Cc3cccnc3)C(=O)N(C)CC(N)=O)CCOCC2)NC1=O		cynomolgus monkey, Achilles tendon	intravenous, 1 mg/kg		tissue to plasma ratio	103%
CC(C)[C@@H]1NC(=O)CNC(=O)[C@H](CC(N)=O)NC(=O)[C@H](CCCNC(=N)N)NC(=O)[C@H](Cc2ccc(O)cc2)NC(=O)[C@H](C(C)C)NC(=O)[C@@H](NC(=O)[C@@H](NC(=O)[C@H](CC(N)=O)NC(=O)[C@H](Cc2c[nH]c3ccccc23)NC(=O)[C@H](C)NC(=O)[C@H](Cc2ccccc2)NC(=O)CNC(=O)[C@H](CCCCN)NC(=O)[C@H](Cc2ccccc2)NC(=O)[C@H](Cc2ccccc2)NC(=O)[C@H](CCCCN)NC(=O)OCC2c3ccccc3-c3ccccc32)C(C)C)CSSC[C@@H](C(=O)N[C@@H](Cc2c[nH]cn2)C(=O)N[C@@H](CCCNC(=N)N)C(=O)N[C@@H](CCCNC(=N)N)C(=O)N[C@@H](C)C(=O)N[C@@H](CC(N)=O)C(N)=O)NC(=O)[C@H](C(C)C)NC(=O)[C@H](CCCNC(=N)N)NC1=O		ICR mouse, serum	ip, 5 mg/kg, 3 d dosing, blood day 5		blood urea nitrogen	10.8 ± 0.96 mmol/L
CN1Cc2cc(Cl)ccc2-n2c(nnc2C2CCN(c3cccc([18F])n3)CC2)C1		C57BL/6 mouse male, blood	intravenous, 3.7 MBq, 15 min		tissue uptake	3.18 ± 0.68 %ID/g
CC[C@H](C)[C@H](NC(=O)[C@H](CC(C)C)NC(=O)[C@H](CC(N)=O)NC(=O)CNC(=O)[C@H](CO)NC(=O)[C@H](CC(C)C)NC(=O)[C@@H](NC(=O)[C@H](CC(C)C)NC(=O)[C@H](CCC(N)=O)NC(=O)[C@]1(C)CCCC=CCCC[C@](C)(NC(=O)[C@@H]2CCCN2C(=O)[C@H](CC(=O)O)NC(C)=O)C(=O)N[C@@H](CCCNC(=N)N)C(=O)N[C@@H](CC(C)C)C(=O)N[C@@H](CC(C)C)C(=O)N1)C(C)C)C(=O)N[C@@H](CCCCN)C(=O)N[C@@H](CCC(=O)O)C(=O)N[C@@]1(C)CCCC=CCCC[C@@](C)(C(=O)N[C@@H](Cc2c[nH]cn2)C(=O)N[C@@H](CO)C(=O)N[C@@H](CCCNC(=N)N)C(N)=O)NC(=O)[C@H](CCCNC(=N)N)NC(=O)[C@H](CCCNC(=N)N)NC(=O)[C@H](C(C)C)NC1=O	LC-MS	C57BL/6J mouse, serum	subcutaneous, 5 mg/kg, multiple doses, 0.5 h		serum concentration	68.5 ± 10.4 ng/mL
N=C(N)NCCC[C@H](NC(=O)[C@H](CCCNC(=N)N)NC(=O)[C@H](CCCNC(=N)N)NC(=O)[C@H](CCC(N)=O)NC(=O)[C@H](CCCNC(=N)N)NC(=O)[C@H](CCCNC(=N)N)NC(=O)[C@H](CCCCN)NC(=O)[C@H](CCCCN)NC(=O)[C@H](CCCNC(=N)N)NC(=O)CNC(=O)[C@H](Cc1ccc(O)cc1)NC(=O)[C@H](Cc1ccccc1)NC(=O)[C@H](Cc1ccccc1)NC(=O)[C@H](Cc1ccccc1)NC(=O)Cc1ccc2ccccc2c1)C(=O)O		C57BL/6 mice	intraperitoneal, 20 mg/kg, 12 h	direction not given	health score	5
CSCC[C@@H]1NC(=O)[C@H](C(C)C)NC(=O)[C@H](CCCNC(=N)N)NC(=O)[C@@H]2CCCN2C(=O)CNC(=O)[C@@H](NC(=O)CNC(=O)[C@H](CO)NC(=O)CNC(=O)[C@H](CO)NC(=S)Nc2ccc(C[C@H]3CN(CC(=O)O)CCN(CC(=O)O)CCN3CC(=O)O)cc2)CSSC[C@@H](C(N)=O)NC(=O)[C@@H]2CCCN2C(=O)CNC(=O)[C@H](CCC(=O)O)NC(=O)[C@H](CC(=O)O)NC(=O)[C@H](CC(=O)O)NC(=O)CNC(=O)[C@H](CC(C)C)NC(=O)[C@H](Cc2c[nH]cn2)NC(=O)[C@H](CC(C)C)NC(=O)CNC(=O)[C@H](Cc2c[nH]cn2)NC1=O [copper-64 labelled]	dynamic PET	CD rat, myocardial infarction model, fibrotic infarct myocardium	intravenous, 18.5 MBq, 15 to 60 min		half-life	25 ± 2.5 min
N#[11C]c1ccc(-c2csc(NN=C3CCCC3)n2)cc1	radio-HPLC	C57BL/6 mouse, liver	intravenous, 37 MBq, 5 min		unchanged compound	13.4% and 13%

Repeated from above:
Compound	test	system	setting	scale	measurement	value
N=C(N)NCCC[C@H](NC(=O)[C@H](CCCNC(=N)N)NC(=O)[C@H](CCCNC(=N)N)NC(=O)[C@H](CCC(N)=O)NC(=O)[C@H](CCCNC(=N)N)NC(=O)[C@H](CCCNC(=N)N)NC(=O)[C@H](CCCCN)NC(=O)[C@H](CCCCN)NC(=O)[C@H](CCCNC(=N)N)NC(=O)CNC(=O)[C@H](Cc1ccc(O)cc1)NC(=O)[C@H](Cc1ccccc1)NC(=O)[C@H](Cc1ccccc1)NC(=O)[C@H](Cc1ccccc1)NC(=O)Cc1ccc2ccccc2c1)C(=O)O		C57BL/6 mice	intraperitoneal, 20 mg/kg, 12 h	direction not given	health score	5
